{"data": "Published values gathered from unrelated publications", "note": "Lines come from different studies, so protocols differ. “And” joins repeats or separate records; there may be more than shown. ± gives the spread as reported.", "UniProt P00760, sequence (whole entry, looked up)": "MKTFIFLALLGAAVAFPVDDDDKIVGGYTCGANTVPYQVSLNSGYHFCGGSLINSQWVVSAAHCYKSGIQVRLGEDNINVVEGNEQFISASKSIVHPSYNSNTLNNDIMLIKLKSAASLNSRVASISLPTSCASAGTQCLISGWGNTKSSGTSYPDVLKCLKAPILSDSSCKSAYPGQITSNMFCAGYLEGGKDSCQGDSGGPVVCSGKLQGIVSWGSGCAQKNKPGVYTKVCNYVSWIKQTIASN", "UniProt Q12809, sequence (whole entry, looked up)": "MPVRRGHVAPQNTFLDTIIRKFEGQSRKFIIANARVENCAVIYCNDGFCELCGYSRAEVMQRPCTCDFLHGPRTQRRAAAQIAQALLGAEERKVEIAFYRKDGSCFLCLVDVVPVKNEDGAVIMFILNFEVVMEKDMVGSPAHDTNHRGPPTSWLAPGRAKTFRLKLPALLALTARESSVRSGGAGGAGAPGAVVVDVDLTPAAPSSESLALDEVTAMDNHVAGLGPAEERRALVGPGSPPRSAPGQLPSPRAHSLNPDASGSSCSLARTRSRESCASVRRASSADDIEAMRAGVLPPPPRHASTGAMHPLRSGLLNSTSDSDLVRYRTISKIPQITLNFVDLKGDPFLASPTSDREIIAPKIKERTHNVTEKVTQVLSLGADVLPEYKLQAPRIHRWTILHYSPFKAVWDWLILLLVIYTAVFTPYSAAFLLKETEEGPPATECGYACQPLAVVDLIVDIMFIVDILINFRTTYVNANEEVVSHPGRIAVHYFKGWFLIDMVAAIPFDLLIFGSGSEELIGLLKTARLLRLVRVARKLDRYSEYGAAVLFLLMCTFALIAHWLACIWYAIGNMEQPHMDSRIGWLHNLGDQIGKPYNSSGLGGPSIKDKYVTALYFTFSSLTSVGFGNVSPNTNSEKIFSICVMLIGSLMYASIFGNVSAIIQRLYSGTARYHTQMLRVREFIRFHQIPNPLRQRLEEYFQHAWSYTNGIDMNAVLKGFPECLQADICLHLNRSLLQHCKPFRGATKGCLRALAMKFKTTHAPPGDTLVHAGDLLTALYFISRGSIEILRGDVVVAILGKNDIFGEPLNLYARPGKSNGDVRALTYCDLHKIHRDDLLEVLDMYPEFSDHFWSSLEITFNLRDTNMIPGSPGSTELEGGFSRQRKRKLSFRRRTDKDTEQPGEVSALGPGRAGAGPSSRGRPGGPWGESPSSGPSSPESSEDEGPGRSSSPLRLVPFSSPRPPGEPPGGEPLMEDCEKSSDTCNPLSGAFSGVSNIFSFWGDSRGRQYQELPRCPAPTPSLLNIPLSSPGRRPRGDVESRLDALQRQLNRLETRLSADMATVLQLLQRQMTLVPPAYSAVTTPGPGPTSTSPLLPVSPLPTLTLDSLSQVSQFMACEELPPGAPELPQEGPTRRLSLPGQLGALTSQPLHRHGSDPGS"}
{"Substance": "coproporphyrin I", "system": "human, serum", "setting": "oral, 20 mg ezetimibe, 5 h, geometric mean ezetimibe alone", "how to read": "relative to: at 5 h over pre-dose", "measurement": "concentration ratio", "result": 3.12}
{"Substance": "FNA / CGLSGLGVA-NH2 ([18F]FNA-labelled, C-amide)", "test": "ex vivo gamma counting", "system": "peptide, glioblastoma mouse model, ovaries", "setting": "60 min post injection, together with: 500-fold excess CooP blocking", "measurement": "tissue uptake", "result": "0.58 %ID/g"}
{"Substance": "coproporphyrin I", "system": "human, plasma", "setting": "concentration not given, baseline, endogenous", "measurement": "Cmax", "result": "1.16 ± 0.15 nM"}
{"Substance": "[177Lu]Lu-DOTA-TATE", "test": "radio-HPLC", "system": "PBS", "setting": "2 h, 37 °C, 50 MBq/nmol", "measurement": "intact radiolabelled peptide", "result": "98.1 ± 0.7%"}
{"Substance": "methyl-β-cyclodextrin", "tested on": "Voltage-gated inwardly rectifying potassium channel KCNH2 (KCNH2, Homo sapiens, UniProt Q12809)", "test": "whole-cell patch clamp", "system": "HEK293", "setting": "concentration not given", "measurement": "activation curve slope", "result": "7 ± 0.5"}
{"Substance": "Teicoplanin", "test": "item: stability", "system": "human serum", "setting": "6 days, low QC, autosampler", "measurement": "recovery", "result": "99.3%"}
{"Substance": "CTOP", "test": "RP-HPLC", "system": "HALO RP-amide column", "setting": "25 µM, acetic acid/acetonitrile, 25 min gradient", "measurement": "retention time", "result": "7.46 min"}
{"Substance": "human filamin A", "tested on": "PP6C (human)", "test": "co-immunoprecipitation, IP-MS", "system": "CYB5R4 knockout cells", "setting": "concentration not given", "how to read": "relative to: CYB5R4 knockout over parental", "measurement": "log2 fold change", "result": -0.11}
{"Substance": "regorafenib N-β-glucuronide", "system": "Oatp1b2 knockout mice", "setting": "oral, 10 mg/kg regorafenib", "how to read": "relative to: wild-type mice", "measurement": "Cmax", "result": "5.1 fold"}
{"Substance": "caspofungin", "system": "adult ICU patients, mITT, serum", "setting": "dose not given, day 14", "measurement": "alanine aminotransferase", "result": "30.3 U/L"}
{"Substance": "Pexiganan", "tested on": "Serine protease 1 (PRSS1, Bos taurus, UniProt P00760)", "test": "LC-SLIPS", "system": "synthetic urine", "setting": "0.1 mg/mL, pH 6.0, bovine trypsin, together with: 500 ng/mL trypsinogen and 0.2 U/mL enterokinase", "measurement": "sliding time", "result": "72 s"}
{"Substance": "coproporphyrin III", "test": "UHPLC-MS/MS", "system": "human, serum", "setting": "oral, 20 mg ezetimibe, 5 h, geometric mean ezetimibe phase", "measurement": "serum concentration", "result": "0.282 nM"}
{"Substance": "Polymyxin B", "test": "untargeted LC-MS metabolomics, item: L-arginine", "system": "Sprague-Dawley rat, right cerebral cortex", "setting": "intracerebroventricular, 0.75 mg/kg, 1 h", "how to read": "relative to: NaCl control", "measurement": "log2 fold change", "result": "-1.24 and -1.2"}
{"Substance": "colistin", "tested on": "Enterobacter cloacae", "system": "clinical isolate RKI 146/09", "measurement": "MIC", "result": "2 µg/mL"}
{"Substance": "human RNA helicase A", "tested on": "PP6C (human)", "test": "co-immunoprecipitation, IP-MS", "system": "CYB5R4 knockout cells", "setting": "concentration not given", "how to read": "relative to: CYB5R4 knockout over parental", "measurement": "log2 fold change", "result": -0.86}
